Measurements from different studies.
Each line is one published result; not all experiments were run side by side. Several values in a cell are separate wells, animals, samples, runs or records. Numbers after ± are the reported error.
Bone morphogenetic protein 2: Bone morphogenetic protein 2 (Homo sapiens, UniProt P12643)
RIPK1: Receptor-interacting serine/threonine-protein kinase 1 (RIPK1, Homo sapiens, UniProt Q13546)
ABO G235S/G268A/L266M/R176G: Histo-blood group ABO system transferase (ABO, Homo sapiens, UniProt P16442, G235S/G268A/L266M/R176G)
ADORA1: Adenosine receptor A1 (ADORA1, Homo sapiens, UniProt P30542)

Compound = Cc1ccc(Oc2nc3cc(-c4ccc5c(ccn5C)c4)c(Cl)cc3[nH]2)cc1C(=O)O; target = PRKAA1/PRKAB1, phosphorylated; with gamma1 (Homo sapiens, UniProt Q13131+Q9Y478); assay = binding, circular dichroism titration; conditions = 20 °C, α1β1γ1 complex; Kd = 0.078 µM
Compound = CC(=O)N[C@@H]1[C@@H](O[C@@H]2O[C@H](C(=O)O)[C@@H](O[C@@H]3O[C@H](COS(=O)(=O)O)[C@@H](OS(=O)(=O)O)[C@H](O[C@@H]4O[C@H](C(=O)O)[C@@H](OS(=O)(=O)O)[C@H](OS(=O)(=O)O)[C@H]4OS(=O)(=O)O)[C@H]3NC(C)=O)[C@H](OS(=O)(=O)O)[C@H]2OS(=O)(=O)O)[C@H](OS(=O)(=O)O)[C@@H](COS(=O)(=O)O)O[C@H]1n1ccnn1; target = Bone morphogenetic protein 2; assay = ligand displacement, FP; Kd = 2.81 µM
Compound = OC(Cc1cc(-c2ccc(C(O)C(F)(F)F)s2)sc1-c1ccc(-c2sc(-c3ccc(C(O)C(F)(F)F)s3)cc2CC(O)C(F)(F)F)s1)C(F)(F)F (centres unmarked); target = Microtubule-associated protein tau, 0N4R isoform, aggregated (MAPT, Homo sapiens, UniProt P10636); assay = soluble tau aggregate binding, fluorescence; conditions = 20% sucrose gradient fraction; Kd = 0.066 µM
Compound = Nc1ncnc2c1ncn2[C@@H]1O[C@H](CSCC[C@H](N)C(=O)O)[C@@H](O)[C@H]1O; target = Ribosomal RNA large subunit methyltransferase J (rlmJ, Escherichia coli, UniProt P37634); Kd = 7.5 ± 0.9 µM
Compound = O=C(CCCCCCNc1ccc(C(=O)Nc2ccc(Cl)c(NC(=O)c3cccc(Cl)c3)c2)cn1)NO; target = Protein smoothened (SMO, Homo sapiens, UniProt Q99835); assay = cell-free assay, flow cytometry; Kd = 0.0796 µM
Compound = Cc1cc2nc(NC(=O)C3CC3)sc2c(C)c1Oc1ccc(F)c(NC(=O)Cc2cccc(C(F)(F)F)c2)c1; target = RIPK1; assay = binding, competition with immobilised ligand; Kd = 0.05 µM
Compound = OCc1c(Cl)ccc(Oc2ccc(Cl)cc2Cl)c1O; target = Enoyl-acyl carrier reductase, with NAD+ (ENR, Toxoplasma gondii, UniProt Q6UCJ9); assay = thermal shift; conditions = with: NAD+ 100 µM; Kd = 0.21 ± 0.06 µM
Compound = COc1cc(-c2nc3ccc(C(=O)NCCCN(C)C)cc3n2C2CCC2)cc(OC)c1OC; target = TGFBR1 (Homo sapiens, UniProt P36897); assay = binding, TR-FRET; Kd = 0.847 µM
Compound = Cc1cccc2c1N(C(=O)n1ccnn1)CC2; target = KAI2 (Arabidopsis thaliana, UniProt Q9SZU7); assay = binding, ITC; Kd = 27.7 µM
Compound = CN(C)c1cc2ccccc2c(N)n1; target = CUGBP Elav-like family member 1, RRM1/2 domains (CELF1, Homo sapiens, UniProt Q92879); assay = isothermal titration calorimetry; conditions = 25 °C; Kd = 9.6 ± 1.3 µM
Compound = C=CCCCCCCO[C@H]1O[C@H](CO)[C@H](O)[C@H](O[C@@H]2O[C@H](CO)[C@H](O)[C@H](O)[C@H]2O[C@@H]2O[C@@H](C)[C@@H](O)[C@@H](O)[C@@H]2O)[C@H]1NC(C)=O; target = ABO G235S/G268A/L266M/R176G; assay = methyl-TROSY NMR titration lineshape analysis; conditions = apo enzyme; Kd = 2900 ± 200 µM
Compound = CNc1ccccc1C(=O)O[C@H]1C[C@H](n2cnc3c(N)ncnc32)O[C@@H]1COP(=O)(O)OP(=O)(O)O; target = Unconventional myosin-Va (Gallus gallus, UniProt Q02440, D297C/G292C/I296C/S293C/V295G); assay = stopped-flow FRET; conditions = 15 °C, with: EDTA 4 mM; Kd = 9.73 ± 1.23 µM
Compound = NCC(=O)NCC(=O)N[C@@H](Cc1c[nH]cn1)C(=O)O; target = HIV RRE IB RNA; assay = fluorescein-labelled RNA titration; conditions = 1 mM TCEP; Kd = 320 ± 30 µM
Compound = CC(C)C[C@H](NC(=O)[C@H](CC(C)C)NC(=O)[C@H](CCCNC(=N)N)NC(=O)[C@@H](N)CC(N)=O)C(=O)N[C@@H](CC(C)C)C(=O)N[C@H](C(=O)NCC(=O)O)[C@@H](C)O; target = Heat shock 70 kDa protein 1A, ADP-bound (HSPA1A, Homo sapiens, UniProt P0DMV8); assay = binding, isothermal titration calorimetry; conditions = pH 5.5, 25 °C, full-length ADP-bound, 3% DMSO; Kd = ~10 µM
Compound = OC1(C#Cc2ccccc2)CCCCC1; target = Microphthalmia-associated transcription factor (Homo sapiens, UniProt O75030); assay = binding, NMR; Kd = 207 µM
Compound = Cc1c2ccnc(C(=O)N[C@H](C)CN(C)C)c2cc2c3cc(OCCCN4CCN(C)CC4)ccc3n(C)c12; target = d(G4C2)8 DNA; assay = binding, microscale thermophoresis; conditions = no saturable binding; Kd = > 20 µM
Compound = CCCn1c(=O)c2[nH]c(-c3ccc(OCC(=O)NCCNC(=O)CCCCCNC(=O)COc4ccc(/C=C/C5=[N+]6C(=Cc7ccc(-c8cccs8)n7[B-]6(F)F)C=C5)cc4)cc3)nc2n(CCC)c1=O; target = ADORA1; assay = CRE reporter gene, antagonist, parallel shift; system = CHO-A1; conditions = Gi-mediated inhibition, with: NECA and forskolin; Kd = 0.12 µM
Compound = CC(=O)N[C@H]1[C@@H](OP(=O)(O)OP(=O)(O)OC[C@H]2O[C@@H](n3ccc(=O)[nH]c3=O)[C@H](O)[C@@H]2O)O[C@H](CO)[C@H](O)[C@@H]1O; target = ABO G235S/G268A/L266M/R176G; assay = binding, NMR; Kd = 3370 µM
Compound = CC(=O)N[C@@H]1[C@@H](O[C@@H]2O[C@H](C(=O)O)[C@@H](O[C@@H]3O[C@H](COS(=O)(=O)O)[C@@H](OS(=O)(=O)O)[C@H](O[C@@H]4O[C@H](C(=O)O)[C@@H](OS(=O)(=O)O)[C@H](OS(=O)(=O)O)[C@H]4OS(=O)(=O)O)[C@H]3NC(C)=O)[C@H](OS(=O)(=O)O)[C@H]2OS(=O)(=O)O)[C@H](OS(=O)(=O)O)[C@@H](COS(=O)(=O)O)O[C@H]1N=[N+]=[N-]; target = Fibroblast growth factor 2 (Homo sapiens, UniProt P09038); assay = ligand displacement, FP; Kd = 0.294 µM
Compound = CCCn1c(=O)c2[nH]c(-c3ccc(OCC(=O)NCCNC(=O)CCCCCCCNS(=O)(=O)c4cccc5c(N(C)C)cccc45)cc3)nc2n(CCC)c1=O; target = ADORA1; assay = CRE reporter gene, antagonist; system = CHO-A1; conditions = Gs-mediated enhancement, with: NECA and forskolin; Kd = 0.038 µM
Compound = COc1ccc(SC2=CC(=O)C(=O)c3c(-c4c(C)cccc4C)cn(S(=O)(=O)c4ccccc4)c32)cc1; target = ELAV-like protein 1 (ELAVL1, Homo sapiens, UniProt Q15717); assay = binding, SPR; Kd = 8.59 µM
Compound = Cc1cc(N2CCC(CO)(C3CC3)C2=O)cc(C(=O)NCc2cc(F)cc(-c3cnn(C)c3)c2)n1 (centres unmarked); target = EPRS1 (Homo sapiens, UniProt P07814); assay = binding, MST; Kd = ~2.29 µM and 2.29 µM
Compound = CC(=O)N[C@@H]1[C@@H](O[C@@H]2O[C@H](C(=O)O)[C@@H](OS(=O)(=O)O)[C@H](OS(=O)(=O)O)[C@H]2OS(=O)(=O)O)[C@H](OS(=O)(=O)O)[C@@H](COS(=O)(=O)O)O[C@H]1N=[N+]=[N-]; target = Bone morphogenetic protein 2; assay = ligand displacement, FP; Kd = 110 µM
Compound = C=CC(=O)Oc1ccc(/C=C/C(=O)c2c(OC)cc3c(c2OC(=O)C=C)CCC(C)(C)O3)cc1; target = DGKZ (Homo sapiens, UniProt Q13574); assay = binding, SPR; Kd = 6.33 µM
Compound = CCCCCCCCO[C@@H]1O[C@H](CO)[C@H](O)C[C@H]1O[C@@H]1O[C@@H](C)[C@@H](O)[C@@H](O)[C@@H]1O; target = ABO G235S/G268A/L266M/R176G; assay = binding, methyl-TROSY NMR titration; conditions = with: saturating UDP-Glc; Kd = 120 ± 10 µM
Compound = CC(=O)N[C@@H]1[C@@H](O[C@@H]2O[C@H](C(=O)O)[C@@H](O[C@@H]3O[C@H](COS(=O)(=O)O)[C@@H](OS(=O)(=O)O)[C@H](O[C@@H]4O[C@H](C(=O)O)[C@@H](OS(=O)(=O)O)[C@H](OS(=O)(=O)O)[C@H]4OS(=O)(=O)O)[C@H]3NC(C)=O)[C@H](OS(=O)(=O)O)[C@H]2OS(=O)(=O)O)[C@H](OS(=O)(=O)O)[C@@H](COS(=O)(=O)O)O[C@H]1SCCOCCOCCSSCCOCCOCCS[C@@H]1O[C@H](COS(=O)(=O)O)[C@@H](OS(=O)(=O)O)[C@H](O[C@@H]2O[C@H](C(=O)O)[C@@H](O[C@@H]3O[C@H](COS(=O)(=O)O)[C@@H](OS(=O)(=O)O)[C@H](O[C@@H]4O[C@H](C(=O)O)[C@@H](OS(=O)(=O)O)[C@H](OS(=O)(=O)O)[C@H]4OS(=O)(=O)O)[C@H]3NC(C)=O)[C@H](OS(=O)(=O)O)[C@H]2OS(=O)(=O)O)[C@H]1NC(C)=O; target = Bone morphogenetic protein 2; assay = ligand displacement, FP; Kd = 0.039 µM
Compound = Cc1cc2nc(NC(=O)C3CC3)sc2cc1Oc1ccc(F)c(NC(=O)Cc2cccc(C(F)(F)F)c2)c1; target = RIPK1; assay = binding, competition with immobilised ligand; Kd = 0.14 µM
Compound = Cc1cc(N2CC[C@@](C#N)(C3(C)CC3)C2=O)cc(C(=O)NCc2cc(F)cc(-c3cnn(C)c3)c2)n1; target = Bifunctional glutamate/proline--tRNA ligase, prolyl-tRNA synthetase domain (EPRS1, Homo sapiens, UniProt P07814); assay = binding, microscale thermophoresis; Kd = 0.124 µM
Compound = Nc1nc2cnc(C(=O)N3CCOC[C@@H]3c3ccc(C(F)(F)F)cc3)cc2c2c1COC2; target = Protein arginine N-methyltransferase 5, SAM-bound (PRMT5, Homo sapiens, UniProt O14744); assay = SPR; conditions = with: SAM 20 µM; Kd = 0.00023 µM
Compound = CC(=O)c1cnc(N)nc1N1CC[C@H]1c1nn2ccc(Cl)c2c(=O)n1-c1ccccc1; target = Phosphatidylinositol 4,5-bisphosphate 3-kinase catalytic subunit alpha isoform, with p85 (PIK3CA, Homo sapiens, UniProt P42336); assay = binding, SPR; Kd = 2.42 µM
Compound = CCCn1c(=O)c2[nH]c(-c3ccc(OCC(=O)NCCNC(=O)CCCCCNS(=O)(=O)c4ccc(C5=c6cc7c8c(c6Oc6c5cc5c9c6CCCN9CCC5)CCC[N+]=8CCC7)c(S(=O)(=O)[O-])c4)cc3)nc2n(CCC)c1=O; target = ADORA1; assay = CRE reporter gene, antagonist, parallel shift; system = CHO-A1; conditions = Gi-mediated inhibition, with: NECA and forskolin; Kd = 1 µM
Compound = CC(C)C[C@@H](N)C(=O)N[C@H](CC(=O)O)C(=O)N[C@@H](C(=O)N[C@H](Cc1ccccc1)C(=O)N[C@H](CC(C)C)C(=O)N[C@H](Cc1ccc(O)cc1)C(=O)N[C@H](CO)C(=O)N[C@H](CCC(=O)O)C(=O)O)C(C)C; target = CD274 (Homo sapiens, UniProt Q9NZQ7); assay = binding, MST; Kd = 7.53 µM

A few entries again:
Compound = Cc1cc(N2CCC(CO)(C3CC3)C2=O)cc(C(=O)NCc2cc(F)cc(-c3cnn(C)c3)c2)n1 (centres unmarked); target = EPRS1 (Homo sapiens, UniProt P07814); assay = binding, MST; Kd = ~2.29 µM and 2.29 µM
Compound = C=CCCCCCCO[C@H]1O[C@H](CO)[C@H](O)[C@H](O[C@@H]2O[C@H](CO)[C@H](O)[C@H](O)[C@H]2O[C@@H]2O[C@@H](C)[C@@H](O)[C@@H](O)[C@@H]2O)[C@H]1NC(C)=O; target = ABO G235S/G268A/L266M/R176G; assay = methyl-TROSY NMR titration lineshape analysis; conditions = apo enzyme; Kd = 2900 ± 200 µM
Compound = Cc1cc2nc(NC(=O)C3CC3)sc2c(C)c1Oc1ccc(F)c(NC(=O)Cc2cccc(C(F)(F)F)c2)c1; target = RIPK1; assay = binding, competition with immobilised ligand; Kd = 0.05 µM
